Measurements of several laboratories.
Lines come from different studies, so protocols differ.
B1: acpP crypto-AcpP 1-78 (Escherichia coli, UniProt P0A6A8); Ser36 phosphopantetheine fluorophore analog; chain MSTIEERVKKIIGEQLGVKQEEVTNNASFVEDLGADSLDTVELVMALEEEFDTEIPDEEAEKITTVQAAIDYINGHQA
B2: TFC1 1-649 (Saccharomyces cerevisiae, UniProt P32367); chain MPVEEPLATLSSIPDSSADQAPPLIADEFTLDLPRIPSLELPLNVSTKHSSIQKAIKMCGGIEKVKEAFKEHGPIESQHGLQLYLNDDTDSDGSKSYFNEHPVIGKRVPFRDESVILKVTMPKGTLSKNNNSVKDSIKSLKDSNKLRVTPVSIVDNTIKFREMSDFQIKLDNVPSAREFKSSFGSLEWNNFKSFVNSVPDNDSQPQENIGNLILDRSVKIPSTDFQLPPPPKLSMVGFPLLYKYKANPFAKKKKNGVTEVKGTYIKNYQLFVHDLSDKTVIPSQAHEQVLYDFEVAKKTKVYPGTKSDSKFYESLEECLKILRELFARRPIWVKRHLDGIVPKKIHHTMKIALALISYRFTMGPWRNTYIKFGIDPRSSVEYAQYQTEYFKIERKLLSSPIVKKNVPKPPPLVFESDTPGGIDSRFKFDGKRIPWYLMLQIDLLIGEPNIAEVFHNVEYLDKANELTGWFKELDLVKIRRIVKYELGCMVQGNYEYNKYKLKYFKTMLFVKESMVPENKNSEEGMGVNTNKDADGDINMDAGSQMSSNAIEEDKGIAAGDDFDDNGAITEEPDDAALENEEMDTDQNLKVPASIDDDVDDVDADEEEQESFDVKTASFQDIINKIAKLDPKTAETMKSELKGFVDEVDL
B3: NECTIN2 32-160 (Homo sapiens, UniProt Q92692); sequence looked up; chain QDVRVQVLPEVRGQLGGTVELPCHLLPPVPGLYISLVTWQRPDAPANHQNVAAFHPKMGPSFPSPKPGSERLSFVSAKQSTGQDTEAELQDATLALHGLTVEDEGNYTCEFATFPKGSVRGMTWLRVIA
B4: ND3 1-128 (Yarrowia lipolytica, UniProt Q9B6C7); sequence looked up; chain MNTFIIFIILIPIVGFALLAVNILLAVYKPYNEKLGAFECGLTSFNQTRLAFNAAFILVAILFLPFDLEISTLLPYVMSIYLVSNYGFTIVLLFLLILIIGFVYEINTNALKINKHNKPNTDSLIYKL
B5: CCDC32 (Mus musculus, UniProt Q8BS39); chain MKMFESLDSSATKSGRDLWAEICSCLPSPAQEDVSDNAFSDSFMDSHPAGESHTAAADSAVQPAGKPWAPLHDSEVYLASLEKKLRRIKGLNEEVTSKDMLRTLAQAKKECWDRFLQEKLASEFFVDGLDSDERTLEHFKRWLQPDKVAISTEEVQFLIPPESQAEKPEAGDKPAAAEQ
B6: TTC7B (Homo sapiens, UniProt Q86TV6); chain MATKKAGSRLETEIERCRSECQWERIPELVKQLSAKLIANDDMAELLLGESKLEQYLKEHPLRQGASPRGPKPQLTEVRKHLTAALDRGNLKSEFLQESNLIMAKLNYVEGDYKEALNIYARVGLDDLPLTAVPPYRLRVIAEAYATKGLCLEKLPISSSTSNLHVDREQDVITCYEKAGDIALLYLQEIERVILSNIQNRSPKPGPAPHDQELGFFLETGLQRAHVLYFKNGNLTRGVGRFRELLRAVETRTTQNLRMTIARQLAEILLRGMCEQSYWNPLEDPPCQSPLDDPLRKGANTKTYTLTRRARVYSGENIFCPQENTEEALLLLLISESMANRDAVLSRIPEHKSDRLISLQSASVVYDLLTIALGRRGQYEMLSECLERAMKFAFEEFHLWYQFALSLMAAGKSARAVKVLKECIRLKPDDATIPLLAAKLCMGSLHWLEEAEKFAKTVVDVGEKTSEFKAKGYLALGLTYSLQATDASLRGMQEVLQRKALLAFQRAHSLSPTDHQAAFYLALQLAISRQIPEALGYVRQALQLQGDDANSLHLLALLLSAQKHYHDALNIIDMALSEYPENFILLFSKVKLQSLCRGPDEALLTCKHMLQIWKSCYNLTNPSDSGRGSSLLDRTIADRRQLNTITLPDFSDPETGSVHATSVAASRVEQALSEVASSLQSSAPKQGPLHPWMTLAQIWLHAAEVYIGIGKPAEATACTQEAANLFPMSHNVLYMRGQIAELRGSMDEARRWYEEALAISPTHVKSMQRLALILHQLGRYSLAEKILRDAVQVNSTAHEVWNGLGEVLQAQGNDAAATECFLTALELEASSPAVPFTIIPRVL
B7: CNOT1 1833-2361 (Homo sapiens, UniProt A5YKK6); sequence looked up; chain HSGISQASEYDDPPGLREKAEYLLREWVNLYHSAAAGRDSTKAFSAFVGQMHQQGILKTDDLITRFFRLCTEMCVEISYRAQAEQQHNPAANPTMIRAKCYHNLDAFVRLIALLVKHSGEATNTVTKINLLNKVLGIVVGVLLQDHDVRQSEFQQLPYHRIFIMLLLELNAPEHVLETINFQTLTAFCNTFHILRPTKAPGFVYAWLELISHRIFIARMLAHTPQQKGWPMYAQLLIDLFKYLAPFLRNVELTKPMQILYKGTLRVLLVLLHDFPEFLCDYHYGFCDVIPPNCIQLRNLILSAFPRNMRLPDPFTPNLKVDMLSEINIAPRILTNFTGVMPPQFKKDLDSYLKTRSPVTFLSDLRSNLQVSNEPGNRYNLQLINALVLYVGTQAIAHIHNKGSTPSMSTITHSAHMDIFQNLAVDLDTEGRYLFLNAIANQLRYPNSHTHYFSCTMLYLFAEANTEAIQEQITRVLLERLIVNRPHPWGLLITFIELIKNPAFKFWNHEFVHCAPEIEKLFQSVAQCCM
B8: POMP (Homo sapiens, UniProt Q9Y244); chain MNARGLGSELKDSIPVTELSASGPFESHDLLRKGFSCVKNELLPSHPLELSEKNFQLNQDKMNFSTLRNIQGLFAPLKLQMEFKAVQQVQRLPFLSSSNLSLDVLRGNDETIGFEDILNDPSQSEVMGEPHLMVEYKLGLL
B9: ELM1 S605D/S604D/S519D/T463D/S424D/S422D/S324D (Saccharomyces cerevisiae, UniProt P32801); sequence looked up; chain MSPRQLIPTLIPEWAPLSQQSCIREDELDSPPITPTSQTSSFGSSFSQQKPTYSTIIGENIHTILDEIRPYVKKITVSDQDKKTINQYTLGVSAGSGQFGYVRKAYSSTLGKVVAVKIIPKKPWNAQQYSVNQVMRQIQLWKSKGKITTNMSGNEAMRLMNIEKCRWEIFAASRLRNNVHIVRLIECLDSPFSESIWIVTNWCSLGELQWKRDDDEDILPQWKKIVISNCSVSTFAKKILEDMTKGLEYLHSQGCIHRDIKPSNILLDEEEKVAKLSDFGSCIFTPQSLPFSDANFEDCFQRELNKIVGTPAFIAPELCHLGNDKRDFVTDGFKLDIWSLGVTLYCLLYNELPFFGENEFETYHKIIEVSLSSKINGNTLNDLVIKRLLEKDVTLRISIQDLVKVLSRDQPIDSRNHSQISDSDVNPVRNEGPVRRFFGRLLTKKGKKKTSGKGKDKVLVSADSKVTPSIHIDEEPDKECFSTTVLRSSPDSSDYCSSLGEEAIQVTDFLDTFCRSNEDLPNLTVNNDKQNSDMKTDRSESSSHSSLKIPTPIKAMIRLKSSPKENGNRTHINCSQDKPSSPLMDRTVGKRTVNNSGARKLAHDDNILNFKAYINSEDSDIRETVEDVKTYLNFADNGQI
B10: RAV2 1-351 (Saccharomyces cerevisiae, UniProt Q03956); chain MSVDLFPNDRFGAEDKYDNFKDAVKECSWLIEEIVKPQLPNIIDNFSKCLEMLESDQIFKMPVSNGIPNESNKQNDSPTVKGVITRQGQYIVDFHIVVRFPQFQRGKQVMFRMNTGLNFLLIQFSKIMTHLKNILEILNQLQVATDVSEFVSKFGVAMELLNHSLILLQNPPRDLVFPEDNNFAMKEMFQDCYSVCESTAHILGLELTLCRNELCIELRNLIKVTKKPWCEIDSKTGRSFCDQIRNQVTNERNKTLSKILSENGVQVQDSTLLNHIISSFQSEAITLPEAQELLRRGVTFDNRVVMECEKLIVSTSDPTLISISAKLNSLKASMANHQANLVASKQLSTYK
B11: Pri1 (Saccharomyces cerevisiae, UniProt P10363); sequence looked up; chain MTNSVKTNGPSSSDMEYYYKSLYPFKHIFNWLNHSPKPSRDMINREFAMAFRSGAYKRYNSFNSVQDFKAQIEKANPDRFEIGAIYNKPPRERDTLLKSELKALEKELVFDIDMDDYDAFRTCCSGAQVCSKCWKFISLAMKITNTALREDFGYKDFIWVFSGRRGAHCWVSDKRARALTDVQRRNVLDYVNVIRDRNTDKRLALKRPYHPHLARSLEQLKPFFVSIMLEEQNPWEDDQHAIQTLLPALYDKQLIDSLKKYWLDNPRRSSKEKWNDIDQIATSLFKGPKQDSHIIKLRECKEDLVLMTLYPKLDVEVTKQTIHLLKAPFCIHPATGNVCVPIDESFAPEKAPKLIDLQTEMEKNNDVSLTALQPFINQFQAYVSSLLKNELGSVKREREDDDEPASLDF
B12: LIN28A (Homo sapiens, UniProt Q9H9Z2); sequence looked up; chain MGSVSNQQFAGGCAKAAEEAPEEAPEDAARAADEPQLLHGAGICKWFNVRMGFGFLSMTARAGVALDPPVDVFVHQSKLHMEGFRSLKEGEAVEFTFKKSAKGLESIRVTGPGGVFCIGSERRPKGKSMQKRRSKGDRCYNCGGLDHHAKECKLPPQPKKCHFCQSISHMVASCPLKAQQGPSAQGKPTYFREEEEEIHSPTLLPEAQN
Sequence of UniProt P25788 (whole entry, looked up): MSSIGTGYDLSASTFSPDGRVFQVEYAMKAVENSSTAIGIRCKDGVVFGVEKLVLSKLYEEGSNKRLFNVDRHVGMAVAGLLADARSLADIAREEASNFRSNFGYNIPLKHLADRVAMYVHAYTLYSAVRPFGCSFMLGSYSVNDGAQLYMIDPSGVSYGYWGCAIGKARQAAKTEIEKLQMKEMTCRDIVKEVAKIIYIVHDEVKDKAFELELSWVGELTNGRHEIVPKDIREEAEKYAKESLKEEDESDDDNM
Sequence of UniProt Q6DKI7 (whole entry, looked up): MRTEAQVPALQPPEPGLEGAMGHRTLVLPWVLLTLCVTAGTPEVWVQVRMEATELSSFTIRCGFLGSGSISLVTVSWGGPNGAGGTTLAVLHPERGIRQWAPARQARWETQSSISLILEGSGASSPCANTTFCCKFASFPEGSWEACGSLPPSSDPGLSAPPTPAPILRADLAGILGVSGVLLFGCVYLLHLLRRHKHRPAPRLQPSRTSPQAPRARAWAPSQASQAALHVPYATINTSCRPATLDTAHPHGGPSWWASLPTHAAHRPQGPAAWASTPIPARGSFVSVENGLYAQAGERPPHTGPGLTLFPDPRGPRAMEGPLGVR
Sequence of UniProt Q12263 (whole entry, looked up): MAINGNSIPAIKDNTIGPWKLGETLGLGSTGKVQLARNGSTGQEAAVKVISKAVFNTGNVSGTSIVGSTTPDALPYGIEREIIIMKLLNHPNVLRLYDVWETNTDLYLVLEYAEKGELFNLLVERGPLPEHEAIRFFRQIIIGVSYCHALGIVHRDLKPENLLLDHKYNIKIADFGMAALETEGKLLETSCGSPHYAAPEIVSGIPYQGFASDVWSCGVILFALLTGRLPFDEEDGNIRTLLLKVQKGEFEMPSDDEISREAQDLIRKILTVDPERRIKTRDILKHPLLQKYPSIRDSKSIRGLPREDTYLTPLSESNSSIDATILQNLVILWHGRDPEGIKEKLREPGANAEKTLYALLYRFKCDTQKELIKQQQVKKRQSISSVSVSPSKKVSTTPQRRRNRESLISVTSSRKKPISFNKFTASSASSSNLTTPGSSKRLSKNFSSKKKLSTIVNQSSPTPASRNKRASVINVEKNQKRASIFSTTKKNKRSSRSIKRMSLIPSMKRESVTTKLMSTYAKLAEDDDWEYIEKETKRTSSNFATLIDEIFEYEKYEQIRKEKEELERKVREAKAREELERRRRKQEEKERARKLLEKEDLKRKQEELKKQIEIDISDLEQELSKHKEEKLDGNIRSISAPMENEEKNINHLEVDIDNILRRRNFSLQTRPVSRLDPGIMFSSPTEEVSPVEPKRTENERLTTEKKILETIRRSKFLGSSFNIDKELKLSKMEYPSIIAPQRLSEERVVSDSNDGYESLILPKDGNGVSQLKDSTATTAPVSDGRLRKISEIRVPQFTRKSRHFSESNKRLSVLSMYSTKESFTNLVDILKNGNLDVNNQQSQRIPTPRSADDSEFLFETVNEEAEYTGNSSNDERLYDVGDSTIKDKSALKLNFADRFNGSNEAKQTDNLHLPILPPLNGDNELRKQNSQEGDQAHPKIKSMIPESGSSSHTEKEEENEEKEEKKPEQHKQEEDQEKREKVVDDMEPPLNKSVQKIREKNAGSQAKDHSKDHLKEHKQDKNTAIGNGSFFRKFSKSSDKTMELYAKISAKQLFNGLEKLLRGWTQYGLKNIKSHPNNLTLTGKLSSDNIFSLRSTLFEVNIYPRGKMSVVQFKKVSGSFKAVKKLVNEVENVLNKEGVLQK
Sequence of UniProt P42356 (whole entry, looked up): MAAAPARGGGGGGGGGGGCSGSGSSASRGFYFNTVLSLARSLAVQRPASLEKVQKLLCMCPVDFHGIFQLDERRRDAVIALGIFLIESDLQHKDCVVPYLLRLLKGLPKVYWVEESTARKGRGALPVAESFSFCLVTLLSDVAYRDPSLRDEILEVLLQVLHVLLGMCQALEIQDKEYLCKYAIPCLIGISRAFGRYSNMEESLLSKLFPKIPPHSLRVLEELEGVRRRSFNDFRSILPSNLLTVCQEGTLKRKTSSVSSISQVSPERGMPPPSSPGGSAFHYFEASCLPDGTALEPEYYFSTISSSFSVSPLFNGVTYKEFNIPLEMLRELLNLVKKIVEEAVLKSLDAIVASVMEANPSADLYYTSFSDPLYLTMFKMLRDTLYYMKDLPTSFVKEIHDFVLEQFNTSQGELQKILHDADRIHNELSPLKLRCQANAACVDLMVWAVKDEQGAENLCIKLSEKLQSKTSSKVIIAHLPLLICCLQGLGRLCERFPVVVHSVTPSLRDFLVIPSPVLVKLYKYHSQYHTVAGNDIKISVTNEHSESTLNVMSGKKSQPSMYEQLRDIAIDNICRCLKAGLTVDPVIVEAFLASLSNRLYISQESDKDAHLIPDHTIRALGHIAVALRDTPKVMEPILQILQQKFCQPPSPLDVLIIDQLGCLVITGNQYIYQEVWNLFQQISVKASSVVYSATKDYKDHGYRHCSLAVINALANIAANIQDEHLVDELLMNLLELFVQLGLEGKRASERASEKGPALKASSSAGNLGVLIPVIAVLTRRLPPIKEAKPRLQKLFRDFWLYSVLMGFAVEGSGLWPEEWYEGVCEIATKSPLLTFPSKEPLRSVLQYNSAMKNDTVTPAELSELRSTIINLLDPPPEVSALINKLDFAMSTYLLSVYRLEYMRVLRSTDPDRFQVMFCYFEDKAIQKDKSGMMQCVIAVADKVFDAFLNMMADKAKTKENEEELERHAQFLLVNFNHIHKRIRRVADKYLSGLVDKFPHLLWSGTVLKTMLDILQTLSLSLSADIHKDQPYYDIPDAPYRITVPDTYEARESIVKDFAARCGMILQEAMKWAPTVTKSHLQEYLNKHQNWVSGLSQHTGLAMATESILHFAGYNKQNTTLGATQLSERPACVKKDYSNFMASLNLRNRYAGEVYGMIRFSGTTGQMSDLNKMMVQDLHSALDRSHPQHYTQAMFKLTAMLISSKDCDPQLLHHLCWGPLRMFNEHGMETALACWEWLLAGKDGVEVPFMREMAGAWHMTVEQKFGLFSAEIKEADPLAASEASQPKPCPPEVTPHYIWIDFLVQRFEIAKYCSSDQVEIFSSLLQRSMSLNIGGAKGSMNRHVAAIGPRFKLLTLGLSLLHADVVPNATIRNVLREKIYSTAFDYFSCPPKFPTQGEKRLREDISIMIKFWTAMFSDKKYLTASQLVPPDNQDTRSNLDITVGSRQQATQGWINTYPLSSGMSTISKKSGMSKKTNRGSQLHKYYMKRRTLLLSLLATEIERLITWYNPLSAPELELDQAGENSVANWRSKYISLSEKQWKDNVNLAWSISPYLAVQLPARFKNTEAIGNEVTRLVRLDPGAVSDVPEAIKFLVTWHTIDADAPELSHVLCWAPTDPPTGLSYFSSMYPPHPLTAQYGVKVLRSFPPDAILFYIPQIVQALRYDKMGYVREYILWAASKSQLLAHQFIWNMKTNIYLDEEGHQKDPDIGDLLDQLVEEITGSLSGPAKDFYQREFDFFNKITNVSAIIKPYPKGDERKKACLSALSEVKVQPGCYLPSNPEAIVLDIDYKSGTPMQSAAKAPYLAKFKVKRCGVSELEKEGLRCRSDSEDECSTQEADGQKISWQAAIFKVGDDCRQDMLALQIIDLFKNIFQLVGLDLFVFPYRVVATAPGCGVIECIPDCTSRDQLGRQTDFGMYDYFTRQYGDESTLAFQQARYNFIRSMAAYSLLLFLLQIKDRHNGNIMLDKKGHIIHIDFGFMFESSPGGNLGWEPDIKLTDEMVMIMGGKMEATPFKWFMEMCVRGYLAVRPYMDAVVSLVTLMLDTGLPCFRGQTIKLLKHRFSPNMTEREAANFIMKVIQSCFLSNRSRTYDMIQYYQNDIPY
Sequence of UniProt Q14671 (whole entry, looked up): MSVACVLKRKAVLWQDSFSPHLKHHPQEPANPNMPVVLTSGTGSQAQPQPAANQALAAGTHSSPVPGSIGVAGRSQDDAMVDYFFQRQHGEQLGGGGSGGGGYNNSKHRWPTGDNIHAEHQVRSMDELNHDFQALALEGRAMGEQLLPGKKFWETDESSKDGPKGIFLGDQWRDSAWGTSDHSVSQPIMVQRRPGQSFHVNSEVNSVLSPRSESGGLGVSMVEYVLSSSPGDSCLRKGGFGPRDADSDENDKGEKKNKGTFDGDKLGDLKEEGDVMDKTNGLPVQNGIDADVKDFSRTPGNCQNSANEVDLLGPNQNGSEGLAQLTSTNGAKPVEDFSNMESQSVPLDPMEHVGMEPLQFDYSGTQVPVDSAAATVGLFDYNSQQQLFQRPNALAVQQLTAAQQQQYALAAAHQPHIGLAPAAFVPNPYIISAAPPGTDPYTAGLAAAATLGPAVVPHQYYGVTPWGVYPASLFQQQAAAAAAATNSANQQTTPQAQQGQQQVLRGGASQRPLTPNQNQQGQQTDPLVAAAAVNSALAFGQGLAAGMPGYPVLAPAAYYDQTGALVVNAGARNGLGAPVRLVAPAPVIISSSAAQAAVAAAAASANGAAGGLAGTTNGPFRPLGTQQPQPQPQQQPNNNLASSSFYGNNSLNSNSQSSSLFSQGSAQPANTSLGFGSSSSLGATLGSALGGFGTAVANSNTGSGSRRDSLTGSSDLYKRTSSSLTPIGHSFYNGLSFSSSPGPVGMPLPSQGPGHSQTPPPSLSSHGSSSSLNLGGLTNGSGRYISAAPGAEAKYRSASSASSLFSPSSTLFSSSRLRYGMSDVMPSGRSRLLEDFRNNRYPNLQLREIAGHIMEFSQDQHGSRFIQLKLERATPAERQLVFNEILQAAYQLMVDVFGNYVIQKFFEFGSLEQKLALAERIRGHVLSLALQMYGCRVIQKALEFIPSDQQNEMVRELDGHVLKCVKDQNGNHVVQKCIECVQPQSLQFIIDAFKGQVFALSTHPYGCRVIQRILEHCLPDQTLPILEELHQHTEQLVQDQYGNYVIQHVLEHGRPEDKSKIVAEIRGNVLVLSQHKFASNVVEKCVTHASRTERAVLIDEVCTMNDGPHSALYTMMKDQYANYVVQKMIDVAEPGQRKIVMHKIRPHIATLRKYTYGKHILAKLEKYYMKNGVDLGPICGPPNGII

`B1 (acpP crypto-AcpP 1-78)`: binding “binds” (fabF 1-413 (Escherichia coli, UniProt P0AAI5); fluorescence emission spectra, solvatochromic probe).
The MIC of `colistin` is reported as 2 µg/mL (Enterobacter cloacae; clinical isolate RKI 146/09).
`B2 (TFC1 1-649)` — result for binding: “binds” (TFC4 1-1025 (Saccharomyces cerevisiae, UniProt P33339); cryo-EM).
Under binding, `VANFSTDVGLRWQS (cnp1 60-73 (Schizosaccharomyces pombe, UniProt Q9Y812))` is recorded as “binds” (mis15 1-249 (Schizosaccharomyces pombe, UniProt Q9C0W0); native gel; peptide).
For `KESALRKQDLLLLFDPLFR (TACC3 to 568 550-568 S558D/Y560L/K562L/L567F (Homo sapiens, UniProt Q9Y6A5); sequence looked up)`, binding read “binds” (CLTC 358-574 (Homo sapiens, UniProt Q00610); peptide array; peptide).
For `B3 (NECTIN2 32-160)`, binding read “binds” (PVRIG ECD , deglycosylated 41-172 (Homo sapiens, UniProt Q6DKI7); crystal structure).
`B4 (ND3 1-128)`: binding “binds” (ND6 1-185 (Yarrowia lipolytica, UniProt Q9B6E9); cryo-EM).
`B5 (CCDC32)`: binding “binds” (Ap2m1 122-435 (Mus musculus, UniProt P84091); pull-down).
Under binding, `B6 (TTC7B)` is recorded as “binds” (PI4KA (Homo sapiens, UniProt P42356); cryo-EM).
Under binding, `B7 (CNOT1 1833-2361)` is recorded as “binds” (PUM1 589-1186 (Homo sapiens, UniProt Q14671); cross-linking).
`B8 (POMP)`: binding “binds” (PSMA3 (Homo sapiens, UniProt P25788); cryo-EM).
`B9`: binding “binds” (GIN4 (Saccharomyces cerevisiae, UniProt Q12263); pull-down).
Under binding, `B10 (RAV2 1-351)` is recorded as “binds” (RAV1 1-1357 (Saccharomyces cerevisiae, UniProt P47104); cryo-EM structure).
`KLLITIHDRKEFAKFEEERARAKWDTANNPLYKEATSTFTNITYRGT (ITGB3 742-788 (Homo sapiens, UniProt P05106); sequence looked up)`: binding “binds” (VPS33B (Homo sapiens, UniProt Q9H267); pull-down).
`BAP1 (Homo sapiens, UniProt Q92560)` — result for binding: “binds” (UFL1 (Homo sapiens, UniProt O94874); pull-down).
Under binding, `BIN2 (Arabidopsis thaliana, UniProt Q39011)` is recorded as “binds” (PCK1 S62A/T66A (Arabidopsis thaliana, UniProt Q9T074); BLI; without ATP).
`HGKNTFLSRIFGL (ATG9 12-24 (Saccharomyces cerevisiae, UniProt Q12142); sequence looked up)`: binding “binds” (ATG23 full-length, dimer (Saccharomyces cerevisiae, UniProt Q06671); pull-down; 15 minutes, 4 °C).
`QELFGPGLFGGF (dnaJ2 98-109 (Thermus thermophilus, UniProt Q56237); sequence looked up)`: binding “binds” (dnaK 388-500 (Thermus thermophilus, UniProt Q56235); NMR; peptide).
`B11 (Pri1)` — result for binding: “binds” (PRI2 (Saccharomyces cerevisiae, UniProt P20457); cryo-EM).
For `GST-OsCIPK23 (Oryza sativa, UniProt Q6ZLP5)`, binding read “binds” (OsAKT1 C-terminal 438-935 (Oryza sativa, UniProt Q0JKV1); pull-down).
For `B12 (LIN28A)`, binding read “binds” (TUT4 202-1313 (Homo sapiens, UniProt Q5TAX3); cryo-EM).

For quick reference, copied from above:
Under binding, `BIN2 (Arabidopsis thaliana, UniProt Q39011)` is recorded as “binds” (PCK1 S62A/T66A (Arabidopsis thaliana, UniProt Q9T074); BLI; without ATP).
`HGKNTFLSRIFGL (ATG9 12-24 (Saccharomyces cerevisiae, UniProt Q12142); sequence looked up)`: binding “binds” (ATG23 full-length, dimer (Saccharomyces cerevisiae, UniProt Q06671); pull-down; 15 minutes, 4 °C).
